Experimental data pooled from the literature.
Each numbered part is a random draw from the data of one study; scales do not carry over between parts. Changes are numbered by the printed parent chain.

Block 1 — target: CCNE1, cyclin fold, Cln2 fusion (human); technique: yeast growth competition, sequencing; sample: yeast; notes: strong parent motif; relative to: not given; direction: higher = stronger binding; measurement: normalised enrichment score; parent: viral docking peptide; KGVKRKLFAEDSS
Change = G2V; value = 6.42
Change = A9R; value = 7.48
Change = K6V; value = 7.27
Change = K1A; value = 8.32
Change = K6N; value = 5.31
Change = S12P; value = 7.91
Change = K6A; value = 6.47
Change = S12N; value = 7.74

Block 2 — target: tungstate, free oxyanion; technique: microfluidic competitive inhibition; sample: in vitro, cell-free expressed; tested at: not given; direction: lower = stronger binding; measurement: oxyanion analog dissociation constant
Notes: derived from inhibition constants, unchanged parent 2230 nM
Parent: PafA, mature enzyme, eGFP fusion (Elizabethkingia meningoseptica, UniProt Q9KJX5); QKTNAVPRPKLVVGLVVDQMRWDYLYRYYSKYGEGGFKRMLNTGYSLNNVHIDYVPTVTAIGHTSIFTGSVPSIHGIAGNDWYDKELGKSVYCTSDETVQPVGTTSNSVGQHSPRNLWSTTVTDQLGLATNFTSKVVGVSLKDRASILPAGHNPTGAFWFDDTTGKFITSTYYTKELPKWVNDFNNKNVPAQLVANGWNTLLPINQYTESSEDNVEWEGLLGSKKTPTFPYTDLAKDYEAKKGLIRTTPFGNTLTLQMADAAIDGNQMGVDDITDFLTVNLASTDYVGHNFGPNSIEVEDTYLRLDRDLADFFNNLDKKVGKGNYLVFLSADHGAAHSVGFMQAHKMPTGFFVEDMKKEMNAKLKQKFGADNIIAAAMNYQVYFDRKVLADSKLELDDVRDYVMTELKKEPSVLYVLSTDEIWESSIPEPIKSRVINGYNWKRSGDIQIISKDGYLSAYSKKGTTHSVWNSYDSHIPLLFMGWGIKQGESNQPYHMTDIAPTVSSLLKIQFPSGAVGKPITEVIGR
Change = W22V; value = 1.78 µM
Change = N4V; value = 2.18 µM
Change = S467V; value = 2.99 µM
Change = N294G; value = 2.13 µM
Change = T274V; value = 2.1 µM
Change = D473V; value = 1.19 µM
Change = D398V; value = 2.45 µM
Change = T465V; value = 1.16 µM

Block 3 — effect on: binding; technique: phage display NGS; molecule type: peptide; tested at: concentration not given; relative to: input library; measurement: enrichment fold change
Target: UDP-N-acetylglucosamine--peptide N-acetylglucosaminyltransferase 110 kDa subunit (OGT, Homo sapiens, UniProt O15294)
Sequence of UniProt O15294 (whole entry, looked up): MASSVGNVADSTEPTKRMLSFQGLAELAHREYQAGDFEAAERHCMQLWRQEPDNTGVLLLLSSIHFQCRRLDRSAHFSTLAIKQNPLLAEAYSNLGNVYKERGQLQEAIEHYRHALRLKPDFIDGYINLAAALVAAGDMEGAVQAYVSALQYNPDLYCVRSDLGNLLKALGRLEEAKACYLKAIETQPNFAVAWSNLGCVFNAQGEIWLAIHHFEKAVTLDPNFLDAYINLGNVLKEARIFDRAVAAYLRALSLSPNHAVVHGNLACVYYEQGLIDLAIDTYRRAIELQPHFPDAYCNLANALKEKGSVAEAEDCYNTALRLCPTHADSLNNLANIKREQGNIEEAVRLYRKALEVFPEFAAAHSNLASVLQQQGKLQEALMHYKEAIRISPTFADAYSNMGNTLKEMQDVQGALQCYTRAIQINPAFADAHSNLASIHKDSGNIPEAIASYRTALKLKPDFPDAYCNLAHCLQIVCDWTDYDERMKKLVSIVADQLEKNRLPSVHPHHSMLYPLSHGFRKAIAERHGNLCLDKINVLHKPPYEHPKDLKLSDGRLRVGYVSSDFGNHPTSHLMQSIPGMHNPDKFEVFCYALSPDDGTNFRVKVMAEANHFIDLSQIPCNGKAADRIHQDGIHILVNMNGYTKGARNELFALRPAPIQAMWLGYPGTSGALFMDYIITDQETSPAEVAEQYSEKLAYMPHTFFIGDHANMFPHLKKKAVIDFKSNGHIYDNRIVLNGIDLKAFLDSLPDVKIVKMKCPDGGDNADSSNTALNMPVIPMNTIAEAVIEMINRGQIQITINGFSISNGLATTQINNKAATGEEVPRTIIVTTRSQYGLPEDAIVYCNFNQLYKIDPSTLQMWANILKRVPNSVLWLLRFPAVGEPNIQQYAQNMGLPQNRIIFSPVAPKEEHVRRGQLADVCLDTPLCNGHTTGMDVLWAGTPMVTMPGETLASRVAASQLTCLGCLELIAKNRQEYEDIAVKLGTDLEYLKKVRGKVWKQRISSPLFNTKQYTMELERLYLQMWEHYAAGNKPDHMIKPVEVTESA
Molecule = LIARPYQPLYQIIPF; value = 5.33
Molecule = HVTSPMQLTNWHFHA; value = 2.57
Molecule = QATSPFAPIYQMIRD; value = 6.01
Molecule = TDSYMPVYEIKSKAV; value = 5.66
Molecule = VVQQEYRPRYQISFK; value = 4.09
Molecule = HPSHHHGHQNEYYV; value = 9.13
Molecule = HQHQQPQQHVKWHKF; value = 3.73
Molecule = HALHHGSDLHYVVRT; value = 9.14

Single results of other studies
Compound = COc1cc2nc(N(C)CCCNC(=O)C3CCCO3)nc(N)c2cc1OC (stereo not shown); cell line = HEK-293T; assay = pseudovirus infection, FDA-approved drug library counter-screen; system = VSV pseudotyped with VSV-G; setting = 10 µM, 16 h; how to read = relative to: vehicle-treated; measurement = GFP-positive cells; value = 117%
